Assay results collected from several papers.
Compare with care: the assays were run in different laboratories. Values joined by “and” are separate records of one study, mostly repeats; a detail may differ. ± marks the error that the study gave.
Sequence of UniProt P08183 (whole entry, looked up): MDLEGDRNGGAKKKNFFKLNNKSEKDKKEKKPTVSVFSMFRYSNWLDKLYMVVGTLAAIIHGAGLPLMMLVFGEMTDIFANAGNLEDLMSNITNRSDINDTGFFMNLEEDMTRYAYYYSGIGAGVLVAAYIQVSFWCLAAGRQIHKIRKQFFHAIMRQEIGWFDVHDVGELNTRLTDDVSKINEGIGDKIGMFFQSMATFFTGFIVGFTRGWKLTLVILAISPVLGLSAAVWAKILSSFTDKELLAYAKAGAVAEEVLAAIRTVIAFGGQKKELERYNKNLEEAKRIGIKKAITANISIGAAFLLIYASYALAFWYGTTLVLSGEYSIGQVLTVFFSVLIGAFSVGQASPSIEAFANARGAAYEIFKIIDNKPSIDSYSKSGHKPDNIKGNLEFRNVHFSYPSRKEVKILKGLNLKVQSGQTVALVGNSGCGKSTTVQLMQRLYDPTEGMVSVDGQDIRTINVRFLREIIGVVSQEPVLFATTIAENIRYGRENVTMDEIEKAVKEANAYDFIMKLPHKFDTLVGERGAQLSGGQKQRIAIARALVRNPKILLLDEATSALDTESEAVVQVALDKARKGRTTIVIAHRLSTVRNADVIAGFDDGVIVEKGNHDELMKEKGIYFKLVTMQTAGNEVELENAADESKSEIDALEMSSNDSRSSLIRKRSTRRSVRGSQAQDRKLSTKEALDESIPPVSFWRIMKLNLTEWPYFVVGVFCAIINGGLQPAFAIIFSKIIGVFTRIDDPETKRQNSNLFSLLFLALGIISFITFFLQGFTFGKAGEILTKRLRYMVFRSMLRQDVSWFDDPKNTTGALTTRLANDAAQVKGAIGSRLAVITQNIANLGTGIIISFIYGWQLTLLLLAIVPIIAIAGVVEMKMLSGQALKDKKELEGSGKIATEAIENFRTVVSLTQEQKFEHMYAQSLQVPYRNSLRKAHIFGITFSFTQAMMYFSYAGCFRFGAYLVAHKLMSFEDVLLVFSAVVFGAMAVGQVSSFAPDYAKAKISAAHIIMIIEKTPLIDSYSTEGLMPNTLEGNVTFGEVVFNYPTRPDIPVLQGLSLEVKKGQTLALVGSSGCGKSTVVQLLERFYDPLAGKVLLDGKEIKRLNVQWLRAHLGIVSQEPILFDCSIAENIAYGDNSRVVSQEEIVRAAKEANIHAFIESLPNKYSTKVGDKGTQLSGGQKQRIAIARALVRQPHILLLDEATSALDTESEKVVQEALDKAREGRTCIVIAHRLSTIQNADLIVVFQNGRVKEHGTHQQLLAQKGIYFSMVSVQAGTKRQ
Sequence of UniProt Q86UE8 (whole entry, looked up): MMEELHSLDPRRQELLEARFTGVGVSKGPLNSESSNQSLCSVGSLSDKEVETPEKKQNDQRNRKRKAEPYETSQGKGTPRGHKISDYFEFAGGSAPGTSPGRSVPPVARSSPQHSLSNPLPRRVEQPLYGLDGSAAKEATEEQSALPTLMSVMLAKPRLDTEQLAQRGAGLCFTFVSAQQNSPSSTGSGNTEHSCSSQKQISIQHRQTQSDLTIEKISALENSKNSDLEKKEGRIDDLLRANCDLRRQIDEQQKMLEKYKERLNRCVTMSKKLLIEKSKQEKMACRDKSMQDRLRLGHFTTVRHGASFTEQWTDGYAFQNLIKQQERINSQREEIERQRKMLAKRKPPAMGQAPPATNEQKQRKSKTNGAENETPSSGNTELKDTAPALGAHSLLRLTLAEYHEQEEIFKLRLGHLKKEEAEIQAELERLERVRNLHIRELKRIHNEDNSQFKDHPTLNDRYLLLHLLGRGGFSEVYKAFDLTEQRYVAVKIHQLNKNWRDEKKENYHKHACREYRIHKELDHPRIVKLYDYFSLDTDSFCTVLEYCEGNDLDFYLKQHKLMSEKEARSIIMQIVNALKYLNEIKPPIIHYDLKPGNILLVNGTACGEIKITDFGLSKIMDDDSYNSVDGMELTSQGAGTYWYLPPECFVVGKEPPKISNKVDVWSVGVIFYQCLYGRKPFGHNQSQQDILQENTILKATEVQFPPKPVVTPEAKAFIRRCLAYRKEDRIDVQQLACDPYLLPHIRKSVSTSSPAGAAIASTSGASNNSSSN

`CSCC[C@H](NC(=O)CNC(=O)[C@H](CCCCN)NC(=O)[C@H](CC(C)C)NC(=O)[C@@H]1CCCN1C(=O)[C@H](CO)NC(=O)[C@H](Cc1c[nH]cn1)NC(=O)[C@H](Cc1c[nH]c2ccccc12)NC(=O)[C@H](CCCNC(=N)N)NC(=O)[C@H](CC(C)C)NC(=O)[C@H](CCCNC(=N)N)NC(=O)[C@H](Cc1c[nH]c2ccccc12)NC(=O)[C@H](CS)NC(=O)CCCCCNC(=O)CN1CCN(CC(=O)O)CCN(CC(=O)O)CCN(CC(=O)O)CC1)C(=O)O` [copper-64 labelled] has a tissue uptake of 2.34 %ID/g (ex vivo biodistribution; BALB/c nude mice, stomach; intravenous, dose not given, 18 h, Huh-7 tumour-bearing).
For `COc1ccccc1-c1n[nH]c2nc(N[C@H]3CC[C@H](NS(=O)(=O)CC(C)C)CC3)ncc12`, the relative abundance was 0.09 (bead binding, competition bead pull-down, measured: LINJ.32.0800; Leishmania donovani extract; 10 µM; relative to: vehicle).
`CC[C@H](C)[C@H](NC(=O)[C@H](CCCCN)NC(=O)CNC(=O)[C@H](CC(C)C)NC(=O)[C@H](Cc1ccccc1)NC(=O)[C@H](CCCCN)NC(=O)[C@H](CO)NC(=O)[C@H](Cc1ccccc1)NC(=O)[C@H](Cc1c[nH]c2ccccc12)NC(=O)[C@H](CCC(N)=O)NC(=O)[C@@H](NC(=O)[C@H](Cc1ccccc1)NC(=O)CCCCCNC(=O)CN1CCN(CC(=O)O)CCN(CC(=O)O)CCN(CC(=O)O)CC1)C(C)C)C(=O)N[C@@H](CCC(=O)O)C(=O)N1CCC[C@H]1C(=O)N[C@@H](CC(=O)O)C(=O)N[C@H](C(=O)N[C@@H](CO)C(=O)N[C@@H](CCC(N)=O)C(=O)N[C@H](C(=O)N[C@@H](CCC(N)=O)C(=O)N[C@@H](CC(=O)O)C(=O)N1CCC[C@H]1C(=O)N[C@@H](CC(N)=O)C(=O)N[C@@H](CC(=O)O)C(=O)N[C@@H](CCC(N)=O)C(=O)N[C@@H](Cc1ccc(O)cc1)C(=O)N[C@@H](CCC(=O)O)C(=O)N1CCC[C@H]1C(=O)N[C@@H](Cc1ccccc1)C(=O)O)C(C)C)C(C)C` [copper-64 labelled] gave a tissue uptake of 4.18 ± 0.6 %ID/g (C57BL/6 mice, thymus; together with: LPS 3 mg/kg intratracheal).
Under inhibition, `Cc1cc(-c2ccc3ccccc3c2)nnc1NCCN1CCN(C)CC1` is recorded as “negative” (ATP-dependent translocase ABCB1 (ABCB1, Homo sapiens, UniProt P08183); transport; concentration not given).
For `CC[C@H](C)[C@H](NC(=O)[C@H](CCC(N)=O)NC(=O)[C@H](Cc1c[nH]cn1)NC(=O)[C@H](C)NC(=O)[C@H](CC(C)C)NC(=O)[C@H](CCCCN)NC(=O)[C@H](CCC(N)=O)NC(=O)[C@@H](NC(=O)[C@@H](NC(=O)[C@@H]1CSSC[C@H](NC(=O)CNC(=O)[C@H](Cc2ccccc2)NC(=O)[C@H](CO)NC(=O)[C@H](CCCNC(=N)N)NC(=O)[C@H](CC(C)C)NC(=O)CNC(=O)[C@H](CCC(N)=O)NC(=O)[C@H](Cc2ccccc2)NC(=O)[C@H](CC(N)=O)NC(=O)[C@H](CC(N)=O)NC(=O)[C@H](CCSC)NC(=O)[C@H](CO)NC(=O)[C@H](CCC(N)=O)NC(=O)[C@H](CCCNC(=N)N)NC(=O)[C@@H](N)Cc2ccc(O)cc2)C(=O)N[C@@H](CCCNC(=N)N)C(=O)N[C@@H](Cc2ccccc2)C(=O)NCC(=O)N[C@@H]([C@@H](C)O)C(=O)N1)[C@@H](C)O)C(C)C)C(=O)N[C@@H](Cc1ccc(O)cc1)C(=O)N[C@@H](CCC(N)=O)C(=O)N[C@@H](Cc1ccccc1)C(=O)N[C@H](C(=O)N[C@@H](CC(=O)O)C(=O)N[C@@H](CCCCN)C(=O)N[C@@H](CC(=O)O)C(=O)N[C@@H](CCCCN)C(=O)N[C@@H](CC(=O)O)C(=O)N[C@@H](CC(N)=O)C(=O)N[C@H](C(=O)N[C@@H](C)C(=O)N1CCC[C@H]1C(=O)N[C@@H](CCCNC(=N)N)C(=O)N[C@@H](CO)C(=O)N[C@@H](CCCCN)C(=O)N[C@H](C(=O)N[C@@H](CO)C(=O)N1CCC[C@H]1C(=O)N[C@@H](CCC(N)=O)C(=O)NCC(=O)N[C@@H](Cc1ccc(O)cc1)C(=O)NCC(=O)O)[C@@H](C)CC)C(C)C)[C@@H](C)O`, the recovery was 113% (human EDTA plasma; 3 h, 4 °C, storage stability; relative to: untreated samples).
`C#Cc1c(F)ccc2cc(O)cc(-c3ncc4c(N5CC6CCC(C5)N6C(=O)OC(CCC)OC(=O)CCC)nc(OC[C@@]56CCCN5C[C@H](F)C6)nc4c3F)c12` (stereo partly drawn) has a compound remaining of 86.9% (chemical stability; simulated intestinal fluid; 1 µM, 30 min).
With `COc1ccccc1-c1n[nH]c2nc(NC3CCN(C(=O)Cc4ccc(F)cc4F)CC3)ncc12` the relative abundance was 1.11 (bead binding, competition bead pull-down, measured: LINJ.30.3560; Leishmania donovani extract; 10 µM; relative to: vehicle).
`O=C1NC2(CC2)COc2ncc(F)cc2[C@H]2COCCN2c2ccn3ncc1c3n2`: “organ-to-body weight ratio” 0.751 ± 0.106% (Sprague-Dawley rat, male, testes; oral, 2.5 mg/kg/day, 4 weeks, end of treatment).
For `CC(C)(C)C(=O)OCOP(=O)(OCOC(=O)C(C)(C)C)C1CCCN(O)C1=O` (stereo not drawn), the log LC50 was over -4 log M (TK-10).
`NC1CCN(C(=O)Oc2ccc(C3CCCC4(C3)OOC3(O4)C4CC5CC(C4)CC3C5)cc2)CC1` (racemic) gave a Vd of 34.4 L/kg (male Sprague-Dawley rat, plasma; intravenous, 10 mg/kg).
`CN(C)[C@H]1C[C@@]23CC[C@@]4(O2)C(=CC[C@]2(C)[C@@H](c5ccc6ccncc6c5)CC[C@H]24)C=C3[C@@H](O)[C@@H]1O` has an inhibition of -6.4% (Serine/threonine-protein kinase tousled-like 2 (TLK2, Homo sapiens, UniProt Q86UE8); ATP probe labelling, inhibitor, KiNativ profiling; 1 µM).
`N#[11C]c1ccc(-c2csc(NN=C3CCCC3)n2)cc1` — result for “uptake in small intestine with contents”: 39.2 %ID/g (C57BL/6 mouse, male; intravenous, 3 MBq, 30 min).
Under “tissue to plasma ratio”, `CC(=O)NCCCC[C@@H]1NC(=O)[C@H](Cc2c[nH]c3c(C)cccc23)NC(=O)[C@H]([C@@H](C)O)NC(=O)[C@H](CC(N)=O)NC(=O)[C@@H](NC(C)=O)C(C)(C)SSC(C)(C)[C@@H](C(=O)N[C@@H](Cc2ccc(OCCN)cc2)C(=O)N[C@@H](Cc2ccc3ccccc3c2)C(=O)NC2(C(=O)N[C@@H](CCC(=O)O)C(=O)N[C@@H](CC(N)=O)C(=O)N[C@@H](Cc3cccnc3)C(=O)N(C)CC(N)=O)CCOCC2)NC1=O` is recorded as 113% (cynomolgus monkey, patellar tendon; intravenous, 1 mg/kg).
`N=C(N)NCCC[C@@H](NC(=O)[C@H](N)Cc1c[nH]c2ccccc12)C(=O)N[C@H](CCCCN)C(=O)N[C@H](Cc1c[nH]c2ccccc12)C(=O)N[C@H](CCCNC(=N)N)C(=O)N[C@H](CCCCN)C(=O)N[C@H](Cc1c[nH]c2ccccc12)C(=O)N[C@H](CCCNC(=N)N)C(=O)N[C@H](CCCCN)C(=O)N[C@H](Cc1c[nH]c2ccccc12)C(=O)N[C@H](CCCNC(=N)N)C(=O)N[C@H](CCCCN)C(N)=O` gave a Kim-1 level of 71.6 ng/mL (mouse, serum; 20 mg/kg).
`CN1CCCCC1C(=O)NC(Cc1ccc(-c2ccccc2)cc1)B(O)O` (stereo not drawn) has a Vd of 4.2 L/kg (rat, plasma; intravenous, 1 mg/kg).
`CN1Cc2cc(Cl)ccc2-n2c(nnc2C2CCN(c3cccc([18F])n3)CC2)C1` gave a tissue uptake of 11 ± 3.02 %ID/g (C57BL/6 mouse male, kidney; intravenous, 3.7 MBq, 1 min).
`CCCCCCCCCCCCCCCC(=O)OCC(CSC[C@H](N)C(=O)N[C@@H](CO)C(=O)N[C@@H](CCCCN)C(=O)N[C@@H](CCCCN)C(=O)N[C@@H](CCCCN)C(=O)N[C@@H](CCCCN)C(=O)NCCCCCC(=O)N[C@@H](CCCCN)C(=O)N[C@@H](CC(C)C)C(=O)N[C@H](C(=O)N[C@@H](Cc1ccccc1)C(=O)N[C@@H](Cc1ccccc1)C(=O)N[C@@H](Cc1ccc2ccccc2c1)C(=O)O)C(C)C)OC(=O)CCCCCCCCCCCCCCC` (stereo partly drawn) has a serum AST of 77 U/L and 113 U/L and 76 U/L (C57BL/6J mouse, serum; intraperitoneal, dose not given).
The multinucleated cells of `Cc1cc(C(=O)Nc2nc3cccc(C)c3n2[C@H]2CCCCN(C(=O)/C=C/CN(C)C)C2)ccn1` is reported as 13.4% (Trypanosoma brucei; propidium iodide flow cytometry; bloodstream form; concentration not given, 72 h).

Some of these lines once more:
`O=C1NC2(CC2)COc2ncc(F)cc2[C@H]2COCCN2c2ccn3ncc1c3n2`: “organ-to-body weight ratio” 0.751 ± 0.106% (Sprague-Dawley rat, male, testes; oral, 2.5 mg/kg/day, 4 weeks, end of treatment).
For `CC(C)(C)C(=O)OCOP(=O)(OCOC(=O)C(C)(C)C)C1CCCN(O)C1=O` (stereo not drawn), the log LC50 was over -4 log M (TK-10).
